{"data": "Earlier results that unrelated publications cite", "B1": "CCL4; sequence looked up; chain APMGSDPPTACCFSYTARKLPRNFVVDYYETSSLCSQPAVVFQTKRSKQVCADPSESWVQEYVYDLELN", "note": "Compare with care: the assays were run in different laboratories. Positions of bridges follow the written chain, without caps; N, C: chain ends. No end group written: not given here."}
{"Molecule": "enfortumab vedotin", "system": "monkey", "endpoint": "half-life", "value": "41 h"}
{"Molecule": "DAPI", "target or system": "HCV NS3 helicase", "assay": "helicase activity, inhibitor", "endpoint": "IC50", "value": "1100 nM"}
{"Molecule": "deltorphin I", "target or system": "human opioid receptor DOP", "assay": "binding", "endpoint": "Ki", "value": "1.73 nM"}
{"Molecule": "KKTKPTPPPKPSHLK", "target or system": "Abp1 SH3 domain (Saccharomyces cerevisiae)", "assay": "binding", "system": "peptide", "endpoint": "Kd", "value": "270 nM"}
{"Molecule": "DPDPE", "target or system": "human opioid receptor KOP", "assay": "binding", "endpoint": "Ki", "value": "> 10000 nM"}
{"Molecule": "RLEICQNVCYYLGTL (disulfide 5-9 (inferred)) (disulfide)", "target or system": "streptavidin", "assay": "binding, bacterial display flow cytometry", "endpoint": "Kd", "value": "10 nM"}
{"Molecule": "B1 (CCL4)", "target or system": "US28 T11A", "assay": "binding, radioligand competition", "endpoint": "Kd", "value": "2.7 nM"}
{"Molecule": "omiganan", "target or system": "Staphylococcus aureus", "system": "ATCC 25923", "conditions": "literature value", "endpoint": "MIC", "value": "12.5 µM"}
{"Molecule": "cilgavimab", "target or system": "SARS-CoV-2 spike protein", "assay": "binding", "endpoint": "Kd", "value": "0.013 nM"}
{"Molecule": "CCL3", "target or system": "US28 T12A", "assay": "binding, radioligand competition", "endpoint": "Kd", "value": "4.1 nM"}
{"Molecule": "AIP-III D4A", "target or system": "agrC (Staphylococcus aureus, UniProt O07911)", "assay": "antagonist", "endpoint": "IC50", "value": "0.485 nM"}
{"Molecule": "buforin II", "target or system": "Staphylococcus aureus", "system": "ATCC 25923", "conditions": "literature value", "endpoint": "MIC", "value": "12.5 µM"}
